Measured values from different studies.
Protocols differ between the studies behind these lines.
Target: Casein kinase I isoform gamma-2 (CSNK1G2, Homo sapiens, UniProt P78368)

SMILES | assay | conditions | scale | measurement | result
CN1CCN(Cc2ccc(-c3ccc(CO[C@H]4CCC[C@@H]4NC(=O)c4cc(-c5cnn(C)c5)cnc4N)cc3)cc2)CC1 | enzyme activity, inhibitor | 0.1 µM |  | inhibition | 9%
CN1CCN(Cc2ccc(NC(=O)c3cccc(C#Cc4cnc(N)c5ncccc45)c3)cc2C(F)(F)F)CC1 | cell-free assay, competition with immobilised ligand | 50 nM |  | remaining binding | 92%
C=CC(=O)N1Cc2nc(-c3cc(-c4cc(Cl)cnc4Cl)c(F)cc3F)n(-c3ccncn3)c2C1 | cell-free assay, inhibitor | 1 µM |  | inhibition | 7.9%
COc1c(Cl)cccc1Nc1c(-c2ccncc2C#C[C@@]2(C)CCCN2C(=O)/C=C/CN(C)C)[nH]c2c1C(=O)NCC2 | cell-free assay, competition with immobilised ligand | 3 µM |  | remaining binding | 90%
CNS(=O)(=O)Nc1nccc(Cc2c(C)c3ccc(Oc4ncccc4F)cc3oc2=O)c1F | binding, competition with immobilised ligand | 10 µM |  | remaining binding | 84%
CCn1cc(C(=O)O)c(=O)c2c(N)c(F)c(NC3CCCCC3)cc21 | kinase activity | 0.1 µM, with: ATP at Km |  | inhibition | 3.3%
COc1ccc(NC(=O)Nc2ccc3c(c2)C(=O)N(C(C)CO)CC(C)C(CN(C)Cc2ccc4c(c2)OCO4)O3)cc1 (stereo not shown) | kinase activity, KinaseProfiler | 0.03 µM, species human | relative to: control | remaining activity | 108%
COc1ccc(O)cc1-c1c[nH]c2ncc(-c3cncc(C(=O)N(C)C)c3)cc12 | binding, competition with immobilised ligand | 0.2 µM |  | inhibition | -10.3%
Cc1cnc2nc1Nc1cccc(c1)COC/C=C/COCc1cc(ccc1OCCN1CCOCC1)N2 |  | concentration not given |  | percent of control | 84%
CCN1CCN(Cc2ccc(C(=O)Nc3ccc(C)c(NCc4cnc5[nH]ccc5c4OC)c3)cc2C(F)(F)F)CC1 | binding, competition with immobilised ligand | 1 µM |  | remaining binding | 90%
Nc1ncc2c(n1)-c1c([nH]c3ccc(C4=CCOCC4)cc13)CCC2 | binding, competition with immobilised ligand | 1 µM |  | remaining binding | 100%
C=CC(=O)Nc1cccc(-c2cnc3[nH]cc(C(=O)NC(C)(C)C)c3n2)c1 | enzyme activity, inhibitor | 0.1 µM |  | inhibition | 4%
NC(=O)[C@@H](O)C[C@H]1CCc2sc3ncnc(O[C@H]4CC[C@H](N5CCOCC5)CC4)c3c21 | enzyme activity, inhibitor | 10 µM |  | inhibition | 7%
O=C=[N][Ru-4]123([n]4c5ccc(O)cc5c5c6c(c7cc(F)c[n+]1c7c54)C(=O)NC6=O)[S+]1CC[S+]2CC[S+]3CC1 (stereo not shown) | enzyme activity | 100 nM, human enzyme, with: 10 µM ATP | relative to: untreated | remaining activity | 44%
COc1cc(-n2cc3cc(F)cc(C(N)=O)c3n2)cc(Cl)c1C1CC(O)(CCO)Cc2ccccc21 (stereo not shown) | enzyme activity, inhibitor | 10 µM |  | inhibition | 2.02%
CNC(=O)C1CCN(c2cc(C)c(F)cc2NC(=O)c2ccc(-c3cc(O)ccc3C)c(C)c2)CC1 | binding, competition with immobilised ligand | 1 µM |  | remaining binding | 67%
COc1c(OCCCN2CCOCC2)ccc2c1N=C(NC(=O)c1cnc(N)nc1)N1CCN=C21 | kinase activity, inhibitor | 1 µM | relative to: untreated control | remaining activity | 102%
Cc1cccc(O[C@H]2CCC[C@@H](C(C)CNCc3ccncc3)C2)c1 (relative stereo) | kinase activity, kinome panel screening | 10 µM |  | inhibition | -12%
Cc1nc2c(F)cc(-c3nc(Nc4ccc(CNC(=O)CCCCCCC(=O)NO)cc4)ncc3F)cc2n1C(C)C | enzyme activity, inhibitor | 1 µM |  | inhibition | 55%
